Earlier results as cited in several papers.
Numbers after ± are the reported error.

Structure (SMILES) | target | assay | test system | conditions | quantity | value
O=c1c2nc(Br)n([C@@H]3O[C@@H]4COP(=O)(O)O[C@H]4[C@H]3O)c2nc2[nH]c(-c3ccccc3)cn12 | PDE1B | cyclic nucleotide hydrolysis, substrate or inhibitor, isothermal titration calorimetry | – | – | Km or Ki | 2130 nM
CCCCCCC=O | Olfactory receptor 226 (Olr226, Rattus norvegicus, UniProt P23270) | agonist | rat olfactory neurons expressing OR-I7 | – | EC50 | 12000 ± 3000 nM
Nc1nc2c(ncn2[C@@H]2O[C@@H]3COP(=O)(O)O[C@H]3[C@H]2O)c(=O)[nH]1 | Cyclic nucleotide-gated channel alpha-2 (Cnga2, Rattus norvegicus, UniProt Q00195) | channel current, agonist, inside-out patch clamp | Xenopus oocytes | holding +100 mV | EC50 | 2100 nM
CC(C)[C@H](NC(=O)CNC(=O)[C@H](CC(N)=O)NC(=O)[C@H](CCCNC(=N)N)NC(=O)[C@H](Cc1ccccc1)NC(=O)[C@@H](N)CO)C(N)=O | Neuropeptide S receptor (NPSR1, Homo sapiens, UniProt Q6W5P4) | calcium mobilization, agonist | – | receptor variant | EC50 | 40.2 ± 11.6 nM
Cc1ccc(O)cc1-n1c(N)c(C(N)=O)c2nc3ccccc3nc21 | Ephrin type-B receptor 4 (EPHB4, Homo sapiens, UniProt P54760) | receptor phosphorylation, inhibitor | MEF overexpressing EPHB4 | – | EC50 | 5.4 nM
CC[C@H](C)[C@H](NC(=O)[C@H](CCCCN)NC(=O)[C@H](Cc1c[nH]cn1)NC(=O)[C@@H](N)CCCNC(=N)N)C(=O)N[C@@H](CC(C)C)C(=O)N[C@@H](Cc1c[nH]cn1)C(=O)N[C@@H](CCCNC(=N)N)C(=O)N[C@@H](CC(C)C)C(=O)N[C@@H](CC(C)C)C(=O)N[C@@H](CCC(N)=O)C(=O)N[C@@H](CCC(=O)O)C(=O)NCC(=O)N[C@@H](CO)C(=O)O | Nuclear receptor subfamily 1 group I member 3, with RXR (Mus musculus, UniProt O35627) | ITC | – | concentration not given, pH 7.2, 25 °C, together with: TCPOBOP | binding stoichiometry | 0.98 ± 0.07
[Ca+2] | cGMP-gated channel (rod) | shift in cGMP K1/2, modulator | – | – | EC50 | ~50 nM
Nc1ncnc2c1ncn2[C@@H]1O[C@H](COP(=O)(O)OP(=O)(O)OP(=O)(O)O)[C@@H](N)[C@H]1O | P2Y purinoceptor 1 (P2RY1, Homo sapiens, UniProt P47900) | phospholipase C activation, agonist | COS-7 | – | EC50 | 10000 nM
Nc1nc(Cl)nc2c1ncn2[C@@H]1O[C@H](COP(=O)(O)OP(=O)(O)O)[C@@H](O)[C@@H]1F | Ribonucleoside-diphosphate reductase large subunit (Homo sapiens, UniProt P23921) | oligomerization | – | – | EC50 | 190 nM
Cn1cc(CNCC2CCN(c3ncc(C(=O)NO)cn3)CC2)c2ccccc21 | Polyamine deacetylase HDAC10 (HDAC10, Homo sapiens, UniProt Q969S8) | binding, TR-FRET | – | – | EC50 | 10 nM
O=C(O)Cc1ccc(O)cc1 | Olfactory receptor class A-like protein 1 (Zebrafish, UniProt A0A0R4IM31) | agonist | Danio rerio | – | EC50 | 2000 nM
CC1(C)C=Cc2c(ccc3c2OC[C@@H](c2ccc(O)cc2O)C3)O1 | GABA-A receptor, native | modulator | dorsal raphe neurons | high-efficacy site | EC50 | 700 nM
CC(C)C[C@H](N)C(=O)O | GLUD1 (Homo sapiens, UniProt P00367) | enzyme activity, allosteric activator | – | reductive amination | EC50 | 640000 ± 110000 nM
CCn1nnc([C@H]2O[C@@H](n3cnc4c(NCc5cccc(I)c5)nc(Cl)nc43)[C@H](O)[C@@H]2O)n1 | Adenosine receptor A2a (ADORA2A, Homo sapiens, UniProt P29274) | adenylyl cyclase activation, agonist | – | – | EC50 | 9.04 nM
Nc1nc2c(ncn2[C@@H]2O[C@@H]3COP(=O)(O)O[C@H]3[C@H]2O)c(=O)[nH]1 | PDE1C | cyclic nucleotide hydrolysis, substrate or inhibitor, isothermal titration calorimetry | – | – | Km or Ki | 4640 nM
Nc1ncnc2c1ncn2[C@@H]1O[C@H](COP(=O)(O)OP(=O)(O)O)[C@@H](O)[C@H]1O | GLUD1 (Homo sapiens, UniProt P00367, H507Y) | enzyme activity, activator | – | mutant enzyme, reductive amination | EC50 | 9100 nM
C[C@@H](c1ccc2nccn2c1)n1nnc2ncc(-c3cnn(C)c3)nc21 | Hepatocyte growth factor receptor, phosphorylated (MET, Homo sapiens, UniProt P08581) | MET phosphorylation | mouse, plasma | – | EC50 | 1.1 nM
O=P(O)(O)OC[C@H]1O[C@H](OP(=O)(O)OP(=O)(O)O)[C@H](O)[C@@H]1O | Trypanosoma cruzi HGPRT isoform A | enzyme activity, substrate | – | GMP formation, together with: guanine 70 µM | Km | 32 ± 5 µM
